# Measurements pooled from the literature.
# A part holds a random share of what one study measured.

# Sample 1 — method: universal PBM; form: double-stranded DNA, one strand shown; medium: in vitro; concentration: not given; reading: higher = stronger binding
# Target: Sal-like protein 4, full length isoform B (SALL4, Homo sapiens, UniProt Q9UJQ4-2, residues 1-616)
# Setting: 8-mer, flanks averaged, mean of replicates
Oligonucleotide,E-score
ACTTCGGA,0.0597
AAAGCATC,0.0165
ATTCGCCG,-0.0881
ATTCGCAG,0.0763
CTCTTAGC,-0.163
CTGCGCTC,-0.278
ACATCCAC,0.0617
GAAATCCC,-0.0993

# Sample 2 — observed: enzyme activity; action: inhibitor; concentration: 20 µM; setting: primary screen
# Target: Replicase polyprotein 1ab, main protease (rep, Severe acute respiratory syndrome coronavirus 2, UniProt P0DTD1)
SMILES,inhibition
COc1cc(C(=S)N2CCOCC2)ccc1O,100%
CNc1nc(Nc2cn(C(C)(C)C#N)nc2C)ncc1C(F)(F)F,33.3%
O=C(O)C=C1NN(Cc2nc3cc(C(F)(F)F)ccc3s2)C(=O)c2ccccc21,31.1%

# Sample 3 — method: protein binding microarray; form: double-stranded DNA, one strand shown; medium: in vitro; concentration: not given; baseline: not given; reading: higher = stronger binding
# Target: Histone acetyltransferase KAT6A, winged helix 2, GST fusion (KAT6A, Homo sapiens, UniProt Q92794, residues 85-181)
# Setting: 8-mer, flanks averaged, mean of 2 arrays, mostly near background
# Target sequence (chain): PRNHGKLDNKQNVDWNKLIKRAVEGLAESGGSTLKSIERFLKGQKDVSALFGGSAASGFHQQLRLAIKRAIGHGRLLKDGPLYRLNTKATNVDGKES
Oligonucleotide,E-score
AAATTTTA,0.153
GTGTAAAC,0.0904
TAGGGAAA,-0.0734
AGTTTGCC,0.0528
GCGGCTGA,-0.0365
ACAAGCAT,0.0402
CCCCCTAA,-0.0974
ACGTAAGT,-0.342

# Sample 4 — cell line: HEK-293T-ACE2; concentration: concentration not given; baseline: vehicle
SMILES,cell number [%]
CCCCCOc1ccc(-c2cc(-c3ccc(C(=O)N[C@H]4C[C@@H](O)[C@@H](O)NC(=O)[C@@H]5[C@@H](O)[C@@H](C)CN5C(=O)[C@H]([C@H](O)CC(N)=O)NC(=O)[C@H]([C@H](O)[C@@H](O)c5ccc(O)c(OS(=O)(=O)[O-])c5)NC(=O)[C@@H]5C[C@@H](O)CN5C(=O)[C@H]([C@@H](C)O)NC4=O)cc3)no2)cc1.[Na+],103
CC(C)NCC(O)COc1ccc(COCCOC(C)C)cc1.CC(C)NCC(O)COc1ccc(COCCOC(C)C)cc1.O=C(O)/C=C/C(=O)O (racemic),100
C[C@@H](O)[C@H]1C(=O)N2C(C(=O)O)=C(S[C@@H]3CN[C@H](CNS(N)(=O)=O)C3)[C@H](C)[C@H]12.O,105
CC(CN(C)C)CN1c2ccccc2Sc2ccccc21.CC(CN(C)C)CN1c2ccccc2Sc2ccccc21.O=C(O)C(O)C(O)C(=O)O (centres unmarked),101

# Sample 5 — observed: enzyme activity; action: inhibitor; concentration: 20 µM
# Target: Replicase polyprotein 1ab, polymerase (rep, Severe acute respiratory syndrome coronavirus 2, UniProt P0DTD1)
Structure (SMILES),inhibition [%]
CC(=O)Oc1cc(C(F)(F)F)ccc1C(=O)O,-7.09
CC(=O)N1CCN(C)CC1,-19.5
COc1ccccc1OCC(O)COC(N)=O (centres unmarked),19
Cc1cc(C#N)cc(C)c1Oc1nc(Nc2ccc(C#N)cc2)nc(N)c1Br,-1.58
CC1(C)NC(=O)N(c2ccc([N+](=O)[O-])c(C(F)(F)F)c2)C1=O,1.09
Cc1cccc(C)c1NC(=O)c1ccccc1C(=O)O,-15.4
Cc1ccc(S(=O)(=O)/C=C/C#N)cc1,0.25
Cc1cc2c(F)c(Oc3ncnn4cc(OC[C@@H](C)OC(=O)[C@H](C)N)c(C)c34)ccc2[nH]1,15.8
O=C(c1ccc(F)c(F)c1Nc1ccc(I)cc1F)N1CC(O)([C@@H]2CCCCN2)C1,-7.21
CC(C)n1cnc2c(NCCc3ccc(O)cc3)nc(-c3csc4ccccc34)nc21,2.51
O=C1NC(=O)[C@@]2(CCOc3ccc(F)cc32)N1,-2.04
CC(C)C(N)=O,3.34
O=C1CCCCCCCCCCCCCCO1,2.8
CN(C)CCN1C(=O)c2cccc3cc(N)cc(c23)C1=O,5.63
O=C1NN(C(=O)Nc2ccc(Br)cc2)[C@@H](c2ccccc2)[C@@H]1c1ccccc1,0.81
O=C1C(=Cc2cccnc2)C(=O)c2ccccc21,66.4
CCCCCCCCCCCCCCCC[N+](C)(C)C,-3.16
CC(C)NC(=O)COc1cccc(-c2nc(Nc3ccc4[nH]ncc4c3)c3ccccc3n2)c1,0.82
COC(F)(F)C(Cl)Cl,0.83
O=C1S/C(=C\c2ccc(OCc3cccc(B(O)O)c3)cc2)C(=O)N1Cc1ccc(F)cc1,-2.25
CNNCc1ccc(C(=O)NC(C)C)cc1,0.45
CCN(CC)Cc1cc(Nc2ccnc3cc(Cl)ccc23)ccc1O,-5.28
Cc1ncc(C)n2nc([C@@H]3C[C@H]3c3nc4c5cccnc5ccn4c3C)nc12,-0.63
COC(=O)C1=C(C)NC(C)=C(C(=O)O[C@@H]2CCCN(Cc3ccccc3)C2)[C@@H]1c1cccc([N+](=O)[O-])c1 (racemic),-0.2
O=c1c(O)c(-c2ccc(O)c(O)c2)oc2cc(O)cc(O)c12,98

# Sample 6 — method: protein-binding microarray; form: double-stranded DNA, one strand shown; medium: in vitro; concentration: 250 nM; setting: 60-bp whole probe; with: salmon DNA 0.4 mg/ml; baseline: random background probes; reading: higher = stronger binding; all sequences stand within: GCCTAGCAC … GTCTTGATTCGCTTGACGCTGCTG
# Target: Interferon regulatory factor 7, full length, phosphomimetic (IRF7, Homo sapiens, UniProt Q92985, residues 1-503, S101K/S471D/S472D/S475D/S476D/S477D/S483D/S484D/S487D)
# Target sequence (chain): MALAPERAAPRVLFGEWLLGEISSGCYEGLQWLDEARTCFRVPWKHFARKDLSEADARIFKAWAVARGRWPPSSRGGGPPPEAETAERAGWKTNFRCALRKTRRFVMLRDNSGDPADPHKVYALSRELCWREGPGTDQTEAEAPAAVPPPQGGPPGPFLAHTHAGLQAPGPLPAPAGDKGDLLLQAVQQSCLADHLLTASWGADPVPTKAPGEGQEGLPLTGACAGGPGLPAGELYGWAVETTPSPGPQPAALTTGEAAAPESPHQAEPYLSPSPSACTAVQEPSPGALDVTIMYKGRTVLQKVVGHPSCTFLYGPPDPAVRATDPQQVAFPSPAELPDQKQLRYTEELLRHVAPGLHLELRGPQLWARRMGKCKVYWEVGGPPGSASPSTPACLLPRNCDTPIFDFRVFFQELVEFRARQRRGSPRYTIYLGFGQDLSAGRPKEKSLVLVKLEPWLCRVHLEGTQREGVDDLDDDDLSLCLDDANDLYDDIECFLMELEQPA
Oligonucleotide,log fluorescence [z-score]
GACGGATTGGGTATCGGGACGTGCTAG,-0.234
GACGGATTGCTTATCCTGACGTGCTAG,-0.536
GACGGTTTCCTTTCCATGACGTGCTAG,3.36
TTAGTACTGGGGTATCGATTAGTGCTA,0.263
CTGTACATCTATGTAGAAAGGTGCTAG,0.43
TCATGTGTAGGTCTTAAACTGTGCTAG,-0.455
TCAATACTCTTCCATGGAACTGTGCTA,0.55
TCATCTTTCCACTTTCTACTGTGCTAG,2.08

# A few entries again (sample 5):
Structure (SMILES),inhibition [%]
CCCCCCCCCCCCCCCC[N+](C)(C)C,-3.16
CC(C)NC(=O)COc1cccc(-c2nc(Nc3ccc4[nH]ncc4c3)c3ccccc3n2)c1,0.82
COC(F)(F)C(Cl)Cl,0.83
O=C1S/C(=C\c2ccc(OCc3cccc(B(O)O)c3)cc2)C(=O)N1Cc1ccc(F)cc1,-2.25
CNNCc1ccc(C(=O)NC(C)C)cc1,0.45
CCN(CC)Cc1cc(Nc2ccnc3cc(Cl)ccc23)ccc1O,-5.28
Cc1ncc(C)n2nc([C@@H]3C[C@H]3c3nc4c5cccnc5ccn4c3C)nc12,-0.63
COC(=O)C1=C(C)NC(C)=C(C(=O)O[C@@H]2CCCN(Cc3ccccc3)C2)[C@@H]1c1cccc([N+](=O)[O-])c1 (racemic),-0.2
O=c1c(O)c(-c2ccc(O)c(O)c2)oc2cc(O)cc(O)c12,98
